# Measured values collected from several papers.
# A part holds a random share of what one study measured. Substitutions count along the parent as printed.

# Series 1
# Target: RNA binding protein fox-1 homolog 2, RRM domain, GST-SBP tag (RBFOX2, Homo sapiens, UniProt O43251-10, residues 100-194)
# Method: RNA Bind-n-Seq
# Molecule type: RNA
# Sample: in vitro
# Tested at: 365 nM
# Setting: natural RNA segment, single round, ends assumed
# Reference: no-protein control
# Reading: higher = stronger binding
# Constant ends, left off below: GGGAGUUCUACAGUCCGACGAUC … UGGAAUUCUCGGGUGCCAA
# Target sequence (chain): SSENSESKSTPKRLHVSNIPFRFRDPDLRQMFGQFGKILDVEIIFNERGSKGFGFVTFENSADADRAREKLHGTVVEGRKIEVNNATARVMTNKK
Sequence,RBNS enrichment (R)
UUGUCUGAUGCUCAUGCCCCACUCAGAGAAAAGACACCAGCAAAUUAAGGAUUUUCUGGGUUCCUGUGACCCUCAGGUUAUUUUAAAGCAAUUGGAAGAGCAUAUGAACA,0.332
GGAGGCGGGAGGGGGCAGCGCUGGGCCUCGUGUCGCUUGUCGUCGUCCGUCCUGUGGGCGCUCUGCCCUGUGUCCUUCGCGUUCCUCGUUAAGCAGAAGAAGUCAGUAGU,0.378
AGCCCUGCUGGGGUCCAACUGACCUGGGACCAGGUGUCGCGCAGAGAUGUGCCUCAUUCUGUGCCUCCUUCUGUGCCUCCUACCAUGUUCCCUUUAACUGUGCCUCAGUG,0.256
GUGAGAGUGUGAAUGCACAGGUGGGUAUUUAAUCUGUAUUAUUCCCCGUUCUUGGAAUUUUCUUCCCCAUGGGGCUGGGGUACUUUACAUUCAAUAAAUACUGUUUAACC,1.19
UGUUUGACCUUGACUCAUUCCCCAUAUGUCUUUGAGGAGGCUCACAAAAUACUAAAGCUGGGAGGAAACUUGGAGAUCUAUAGGUCAAACCUCCCCAUUGGGCUGAUGAG,0.342
UCUCUAAUUCAUAUGAAUUUGCUGUUUGCUCUAAUUUCUUUGGGCUCUUCUAAUUUGAGUGGAGUACAAUUUUGUUGUGAAACAGUCCAGUGAAACUGUGCAGGGAAAUG,0.365
UCACGAGUGUUCUCCAGAGAAUCAGAACCCAGAGGAUACAGACGUAGAUGUGUGAGGGGCUGCAUUAUGGGAACUGGCUCACAGAUUCUGGAGGCCAACAAGUCCCACGA,0.286
UGUGGGCUGAUAGUUGAUCACACAUUGUGCUUUUGAUUUUUGCAUUUGGUGAUGAAUAUUUUAUACCCGUCUAAGGGAGAAAGCUAAUGUUUUCCACAAGACUGAACAAC,0.415
UUGCAUUUAUAAAUUAUAAAUAUUGUACAUGUGUGUAAUUUUUCAUGUAUUCAUUUGCAGUCUUUGUAUUUAAAAAAACUUUACUGUUAUGUUUGUAUAAUAGAACAUUA,0.584
UUGGCUGGGAUAGAGGGGUCAAGUUAUUAAUUUCUUCACACCUACCCUCCUUUUUUUCCCUAUCACUGAAGCUUUUUAGUGCAUUAGUGGGGAGGAGGGUGGGGAGACAU,0.555
UUUGUUUGGUAACUGUUGAGGAAUAAAGGCUUUUUAACCCAUUUUUGAAGAUGGUGAAGUUUGGAGAACAAAUUUUAAAACCAUCAGUCAGAUGAGAUUUUUCUAGAUUG,0.709
AGCAGAAUAGCUUUGUGCUAUUCCAGUAUAAGAUGAACUGUAAUAAUUUUUGACUUCCCUAUUUCAGAGAUAGUCAAUAUAAUAUGUUUAUCUAUAUCCAUAUGGAUGGA,0.26

# Series 2
# Target: RING finger protein unkempt homolog, zinc fingers 1-6, GST-SBP tag (UNK, Homo sapiens, UniProt Q9C0B0, residues 30-357)
# Method: RNA Bind-n-Seq
# Molecule type: RNA
# Sample: in vitro
# Tested at: not given
# Setting: RNA with constant flanks, ends assumed
# Reference: input RNA pool
# Reading: higher = stronger binding
# Constant ends, left off below: GGGAGUUCUACAGUCCGACGAUC … CAACAGAGGAUUGAGCAUCA
# Target sequence (chain): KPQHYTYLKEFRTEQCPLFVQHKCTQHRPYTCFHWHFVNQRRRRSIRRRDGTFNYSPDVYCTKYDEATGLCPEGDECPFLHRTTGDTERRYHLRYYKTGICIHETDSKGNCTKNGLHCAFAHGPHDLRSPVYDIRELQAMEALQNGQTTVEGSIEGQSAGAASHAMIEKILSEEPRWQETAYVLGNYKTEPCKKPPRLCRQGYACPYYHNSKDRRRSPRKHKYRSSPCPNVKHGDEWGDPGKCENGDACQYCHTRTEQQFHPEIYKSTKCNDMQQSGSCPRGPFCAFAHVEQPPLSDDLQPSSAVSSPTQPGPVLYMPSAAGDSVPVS
Sequence,bound/input enrichment
UCAGUGAUUAUUUUUCCAGCUCCGUGUUUCUCUAAGGAAUUAUUUCACACACGGACCAUCUUCCGCAGUUUCCUCAGUGAUGGAAUAUCAUGAAUGUGAGUCAUUAUGUAGCUGUCGUAC,0.271 ratio
AUGGUUGUGAAAGGUGUUUGGGGUCUAAAACAUGAUUUUUCCUGGCACAUAUUUCAAAGCACCGACUUUGUUACCUGCUGCUUCUUGUCUAAUUUACAGGGAUAUUUAAUUUUGUAAGGU,0.284 ratio
UUGAAUGGUUUGGAAUAUGUGCCACAAAGACUGAAAAAUCUUAAUGAAAUUAAUAAGCUGCCCGCACAUCGACCUUGGCUGAUCACAAAAGAGCACAUUCAGAAACUUGUCAAAACUGGA,0.28 ratio
AGGAUGGGGUUUGUUAAAGUUGUUAAGAAUAAGGCCUACUUUAAGAGAUACCAAGUGAAAUUCCGAAGACGACGAGAGGGUAAAACUGAUUAUUAUGCUCGGAAACGCUUGGUGAUACAA,0.341 ratio
GUUCAGUUGGGGGGUAGACUGCUCAGUGAUAGUGCUUGCCAAGCUCUACCCUUAACUCCUCCGGUUGAACUGUGGCCUUUCCCACAAUCUCCCUCACCCCAAACUAAAACCAAAUCCAAG,0.402 ratio
AAUGAGUCUUUGGCCUCAGAGCCUCUCAAAGUGUCCACUUCAAGGGGGGAUCAUCCUCAUCCGCACACAGAUUUUUAAAAAUCAAUUCUCUUGCCAUGCCUCCUAUGUGUUCACAUCUCU,0.31 ratio
CUCCUGGCCCCCAUUAGAUUGCUUUCUUUCUCCAGCGCAGGGUCGUGAUGUGUCCGUCUAAACCGCGUUUUGCAUUAUUUCUAGAUGAGUGCAACUGUCAAAGCAAUAUGGCUUCAGCGG,0.553 ratio
UUCUGGUUCAGAUCUGUGCCUUUGGCUGCAACAAGUAUGUUGAUUACUCAAGGAUUAAUCCGUAAAGGAAUACUUUCAAGUCAUCCCAAAUAUGGUUCCAUCCCUAAACUUAUACUUGCU,0.445 ratio
UAUGUACCAAAUGUUCCAGAAGGUUCUGUGAGAAUUAUAGACCAAUCCAGCAAUGUGGAGACCGCAUCUUUUCCAAUCUAUAAGGUGUUAUUCUGUGCACGUGGACAUGACGGAACAACA,0.258 ratio
GGUAAGCUAAUCGCGGUGAUUGGAGACGAGGACACGGUGACUGGUUUCCUGUUGGGCGGCACCGGGGAGCUAAACAAGAACCGCCACCCUAAUUUCCUGGUAGUGGAGAAGGAUACCACC,0.206 ratio
GGGAUCGCUCCGUCGCACCCACCAUGAUGGAAGACGACGGGCAGCCCCGGACUCUAUACGCCGGUAACCUUUCCAGAGAUGUGACAGAAGUCCUUAUACUUCAGUUGUUCAGUCAGAUUG,0.0724 ratio

# Series 3
# Target: Centromere-binding protein 1, full length, His-tagged (CBF1, Saccharomyces cerevisiae, UniProt P17106, residues 1-351)
# Chain of UniProt P17106 (whole entry, looked up): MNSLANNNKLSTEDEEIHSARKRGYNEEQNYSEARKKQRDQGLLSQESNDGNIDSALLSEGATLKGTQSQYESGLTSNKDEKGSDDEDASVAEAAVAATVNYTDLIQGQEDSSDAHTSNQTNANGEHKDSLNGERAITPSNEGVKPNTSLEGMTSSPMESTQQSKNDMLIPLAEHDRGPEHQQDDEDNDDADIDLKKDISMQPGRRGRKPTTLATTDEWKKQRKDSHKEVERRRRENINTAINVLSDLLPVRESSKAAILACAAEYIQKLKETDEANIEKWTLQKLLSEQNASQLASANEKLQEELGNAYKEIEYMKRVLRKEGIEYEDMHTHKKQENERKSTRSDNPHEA
# Method: competition protein-binding microarray
# Molecule type: double-stranded DNA, one strand shown
# Sample: in vitro
# Tested at: 2 µM
# Setting: whole 60-bp probe, lowest competitor level
# Added: Pho4 competitor, 0.05 µM
# Reading: higher = stronger binding
# Constant ends, left off below: … GTCTTGATTCGCTTGACGCTGCTG
Sequence,fluorescence intensity [a.u.]
TTGCCATCCGGATTGAACGTGTAGCAGTTTTTAAAG,84.4
CGGGGTTAAGTTTGAGGCGTGGGTGGCTTGCAGCAG,82.6
CTAACGAAGGTTTGCTATGTGGGTGACAAGCCAAGT,76.1
TTTCAAAATCGTTTGCACGTGCTTTCGACTGCACTG,2080
CTAACGAAGGTTTTTCACGTGTGGTACAAGCCAAGT,567
CTGAAACAAAACGGCCACGTGCTGTTTCAGCCTTGA,1760
ACCTGCACCGCCACCCCTTCCAGATCTATTTAAAAC,75.9
TACTAGTACGTAAACAACGTGGTGAAGTAGAAAAAA,108
CAGTCTACCAAGGTGAACGTGTCCACTGTAAAGAAA,94.1
ATTAGCTAGAATAATCGCGTGTGTTGTCTTGGCTGG,82.7
GACTCCATCTGGGCACAACTGGGTTAGTGGTCAAGG,54.5
GCAGCTCTTTTATTTCACGTGTTCCGGTTTCCCTCT,1170
ACAACGTAAAACTTGCATGTGAGGCTTAGGTGATTT,142
AAATCTTTGGTTGACAACATGATAACTGGTGTCCCC,71.5
CGGGGTTAAGTTTGCCGCGTGGGTGGCTTGCAGCAG,74.1
GATTCTTCAGTTTAGCACGTGCCGATTTGGCCTCTT,2910
TGATCCGTTCGCAATCACGTTGTTACTATTCGAGGA,632
TGTTTCGCGGCGTTACACGTGAGATCCTATTATTTC,1240

# Series 4
# Target: CCNA1, cyclin fold, Cln2 fusion (human)
# Method: yeast growth competition, sequencing
# Sample: yeast
# Setting: weak parent motif
# Reference: not given
# Reading: higher = stronger binding
# Starting sequence: MICAL3 docking peptide (human); LQLRRQLSFSEDS
Substitution,normalised enrichment score
D12T,0.277
D12I,0.874
F9M,0.392
L7F,-0.276
F9Q,0.397
F9I,-0.0758
R4L,0.0903
Q6S,0.223
S8Y,0.441
E11A,0.22
L7V,0.358
Q6T,0.342
Q6K,0.345
D12V,0.43
S8C,0.445
E11M,-0.0362
R5A,0.144
L3T,1.19
E11C,0.444
L7H,0.0955

# Excerpt of the above (series 1):
Sequence,RBNS enrichment (R)
GUGAGAGUGUGAAUGCACAGGUGGGUAUUUAAUCUGUAUUAUUCCCCGUUCUUGGAAUUUUCUUCCCCAUGGGGCUGGGGUACUUUACAUUCAAUAAAUACUGUUUAACC,1.19
UGUUUGACCUUGACUCAUUCCCCAUAUGUCUUUGAGGAGGCUCACAAAAUACUAAAGCUGGGAGGAAACUUGGAGAUCUAUAGGUCAAACCUCCCCAUUGGGCUGAUGAG,0.342
UCUCUAAUUCAUAUGAAUUUGCUGUUUGCUCUAAUUUCUUUGGGCUCUUCUAAUUUGAGUGGAGUACAAUUUUGUUGUGAAACAGUCCAGUGAAACUGUGCAGGGAAAUG,0.365
UCACGAGUGUUCUCCAGAGAAUCAGAACCCAGAGGAUACAGACGUAGAUGUGUGAGGGGCUGCAUUAUGGGAACUGGCUCACAGAUUCUGGAGGCCAACAAGUCCCACGA,0.286
UGUGGGCUGAUAGUUGAUCACACAUUGUGCUUUUGAUUUUUGCAUUUGGUGAUGAAUAUUUUAUACCCGUCUAAGGGAGAAAGCUAAUGUUUUCCACAAGACUGAACAAC,0.415
